Results from different studies.
Lines come from different studies, so protocols differ. ± marks the error that the study gave.

O=C([O-])CN1CCN(CC(=O)[O-])CCN(CC(=O)NC[C@H]2CC[C@H](C(=O)N[C@H](Cc3cnc4ccccc4c3)C(=O)NCCCC[C@H](NC(=O)N[C@@H](CCC(=O)O)C(=O)O)C(=O)O)CC2)CCN(CC(=O)[O-])CC1.[64Cu+2]
radiation exposure rate (human patient; 140 MBq, 24 h post-injection, at 1 m from patient): < 0.4 µSv/h

Cc1ccc(OCC(=O)N(Cc2cccs2)c2ccn[nH]2)cc1
AUC(0-t) (female Sprague-Dawley rat, plasma; intravenous, 1 mg/kg, single dose): 299 ng·h/mL

CC(=O)N[C@H](CSSC[C@H](N)C(=O)O)C(=O)N[C@H](C)C(=O)N[C@H](CCCNC(=N)N)C(=O)N[C@H](CCCNC(=N)N)C(=O)N[C@H](CCCNC(=N)N)C(=O)N[C@H](C)C(=O)N[C@H](CCCNC(=N)N)C(N)=O
Vd (male human, plasma; intravenous, 5 mg, single dose, healthy volunteers): 159 L

CCCCC/C=C/C=C/C(=O)NCC(C)C
relative error (rat plasma; 4000 ng/mL, 48 h, 4 °C, short-term storage high QC; relative to: nominal concentration): 3.75%

CSc1ccc([C@H]2C[C@@]3(C)[C@@H](CC[C@@]3(O)C(F)(F)C(F)(F)F)[C@@H]3CCC4=CC(=O)CCC4=C32)cc1
maximal oral bioavailability (rat liver microsomes; 100 % absorption assumed): 34%

CC(=O)N([O-])CCCCCNC(=O)CCC(=O)N([O-])CCCCCNC(=O)CCC(=O)N([O-])CCCCCN.[89Zr+4]
intact complex (radio-iTLC; aqueous buffer; initial, pH 7.0, 37 °C, EDTA challenge, added: 100-fold excess EDTA): 96.2 ± 0.7%

c1ccc(CN2CCOCCOCCN(CCCCCCCCCCCCCCN3CCOCCOCCN(CCCCCCCCCCCCCCN4CCOCCOCCN(Cc5ccccc5)CCOCCOCC4)CCOCCOCC3)CCOCCOCC2)cc1
aggregate size (dynamic light scattering; LB Miller medium; 7 µM): 180 nm

CC12CC(c3ccc(S(C)(=O)=O)cc3)C3=C4CCC(=O)C=C4CCC3C1CCC2(O)C(F)(F)C(F)(F)F (stereo not shown)
AUC (human, plasma; oral, 5 mg, single dose, fasted): 324 ng·h/mL

COc1cc2c(cc1OC)CN(CCCCn1ccc3cc(OCC[18F])ccc31)C2
tracer uptake (male CD-1 mouse, spleen; intravenous, 1 h): 6.13 %ID/g

CSCOC1C(=O)C2(C)C(OCSC)CC3OCC3(OC(C)=O)C2C(OC(=O)c2ccccc2)C2(O)CC(OC(=O)C(O)C(C=C(C)C)NC(=O)OC(C)(C)C)C(C)=C1C2(C)C (stereo not shown)
AUC(0-t) (male Sprague-Dawley rat, plasma; intravenous, 2 mg/kg): 188 ng·h/mL

O=C(CCc1ccc(CNC(C(=O)OC2CCCC2)C2CCCCC2)cn1)NO (stereo not shown)
CL/F (human; 40 mg, single dose, geometric mean): 255 L/h

COC(=O)C(c1ccccc1Cl)N1CCC(SCC(=O)c2cccc(OC)c2)C(=CC(=O)O)C1 (mixture of isomers)
deviation from nominal (HPLC-MS/MS; feline EDTA plasma; 100 ng/mL, 6 h, 4 °C, storage stability): -15%

Cn1c(=O)oc2ccc(-c3ccc(CC(C#N)NC(=O)C4CNCCCO4)c(F)c3)cc21 (stereo not shown)
treatment-related adverse event incidence (measured: blood triglycerides increased; human volunteers; oral, 40 mg, single ascending dose fed): 0%

CN1CCC[C@]1(C)/C=C/S(=O)(=O)NC(=O)Nc1c2c(cc3c1CCC3)CCC2
CL/F (human, plasma; oral, 250 mg single dose): 1.1 L/h

CC(C)(F)CC(NC(c1ccc(-c2ccc(S(C)(=O)=O)cc2)cc1)C(F)(F)F)C(=O)NCC#CBr (stereo not shown)
cysteine adduct formation (LC-MS UV trace; aqueous buffer; concentration not given, 23 h, pH 8.0, 37 °C, added: cysteine 10 mM): 66%

CCCC[C@@H]1NC(=O)[C@@H](NC(=O)[C@H](CCC(=O)O)NC(=O)CNC(=O)CN2CCN(CC(=O)O)CCN(CC(=O)O)CCN(CC(=O)O)CC2)CCCCNC(=O)C[C@@H](C(N)=O)NC(=O)[C@H](C(C)C)NC(=O)[C@@H]2CCCN2C(=O)[C@H](CCCNC(=N)N)NC(=O)CNC(=O)[C@H](Cc2c[nH]c3ccccc23)NC(=O)[C@H](CCCNC(=N)N)NC(=O)[C@@H](Cc2ccccc2)NC(=O)[C@H](Cc2c[nH]cn2)NC(=O)[C@H](CCC(=O)O)NC1=O [gallium-67 labelled]
lung uptake (C57 mice, B16/F10 lung metastases; intravenous, 0.037 MBq, 4 h): 1.49 ± 0.69 %ID/g

COc1ccc([C@@H]2CC(=O)c3c(O)cc(O[C@@H]4O[C@H](CO[C@@H]5O[C@@H](C)[C@H](O)[C@@H](O)[C@H]5O)[C@@H](O)[C@H](O)[C@H]4O)cc3O2)cc1O
relative error (rat plasma; 15.62 ng/mL, 12 h, room temperature, autosampler stability; relative to: nominal concentration): 8.49%

CCCC[C@H](NC(C)=O)C(=O)N[C@H]1CC(=O)NCCCC[C@@H](C(=O)N[C@@H](C(=O)N2CCC[C@@H]2C(N)=O)C(C)C)NC(=O)[C@H](Cc2c[nH]c3ccccc23)NC(=O)[C@H](CCCN=C(N)N)NC(=O)[C@@H](Cc2ccc3ccccc3c2)NC(=O)[C@@H]2CCCN2C1=O
half-life (Beagle dog, both sexes, plasma; subcutaneous, once daily, 2.25 mg/kg, day 5): 2.5 ± 0.1 h

COC(=O)c1ccc2c(c1)NC(=O)/C2=C(\Nc1ccc2c(c1)CCN2C(=O)CN1CCOCC1)c1ccccc1
blood clearance (beagle dog; intravenous, 2 mg/kg; relative to: liver blood flow): ~100%

Cc1nc(C#N)ccc1N
relative fluorescence intensity (phosphate buffer with BSA; pH 8, 37 °C, 1% DMSO): 3100 RFU/nmol

CCCC[C@H](NC(C)=O)C(=O)N[C@H]1CC(=O)NCCCC[C@@H](C(=O)N[C@@H](C(=O)N2CCC[C@@H]2C(N)=O)C(C)C)NC(=O)[C@H](Cc2c[nH]c3ccccc23)NC(=O)[C@H](CCCN=C(N)N)NC(=O)[C@@H](Cc2ccc3ccccc3c2)NC(=O)[C@@H]2CCCN2C1=O
mean corpuscular haemoglobin (dog; day 1, start of treatment): 23.7 pg

CC(C)c1cnc(-c2cc(Cl)ccc2F)cc1Nc1ccncc1C(=O)NC(CO)CO
patients with related SAE (measured: hepatic haemorrhage; human patients; oral, dose not given, grade 1): 0%

C[C@@H](N)C1CCN(S(=O)(=O)c2cccc3cnccc23)CC1
detectable duration (mouse, plasma; intraperitoneal, 10 mg/kg): ≤ 4 h

C=C(c1ncc(C(=O)O)cn1)c1cc2c(cc1C)C(C)(C)CCC2(C)C
blood cholesterol (Sprague-Dawley rat, male; oral, 100 mg/kg, 3 h, sesame oil vehicle): 85 ± 12.9 mg/dL

CC(O)c1cc(Cl)ccc1Cn1c(=S)[nH]c(=O)c2[nH]ccc21 (stereo not shown)
exposure ratio (Sprague-Dawley rat, female, plasma; oral, 125 mg/kg/day; relative to: rat over human 10 mg): 2.5

COc1ccc(/C=C/c2ccc(-c3ccc(C)cn3)nc2)cc1
radiative decay rate constant (TCSPC; MeCN): 0.47 ns⁻¹

CC(C)(O)c1ncc([S@](N)(=O)=NC(=O)Nc2c3c(cc4c2CCC4)CCC3)s1
AUC(0-t) (human, plasma; oral, 30 mg, single dose, fasted, healthy volunteers): 27700 ng·h/mL

COC(=O)c1ccc(-c2cn(Cc3cc(Cl)ccc3O[11CH3])nn2)cc1
distribution volume VT (PET, 1TCM; rhesus macaque, thalamus; dose not given): 0.587 mL/cm³

For quick reference, copied from above:
Cn1c(=O)oc2ccc(-c3ccc(CC(C#N)NC(=O)C4CNCCCO4)c(F)c3)cc21 (stereo not shown)
treatment-related adverse event incidence (measured: blood triglycerides increased; human volunteers; oral, 40 mg, single ascending dose fed): 0%

CN1CCC[C@]1(C)/C=C/S(=O)(=O)NC(=O)Nc1c2c(cc3c1CCC3)CCC2
CL/F (human, plasma; oral, 250 mg single dose): 1.1 L/h

CC(C)(F)CC(NC(c1ccc(-c2ccc(S(C)(=O)=O)cc2)cc1)C(F)(F)F)C(=O)NCC#CBr (stereo not shown)
cysteine adduct formation (LC-MS UV trace; aqueous buffer; concentration not given, 23 h, pH 8.0, 37 °C, added: cysteine 10 mM): 66%

CCCC[C@@H]1NC(=O)[C@@H](NC(=O)[C@H](CCC(=O)O)NC(=O)CNC(=O)CN2CCN(CC(=O)O)CCN(CC(=O)O)CCN(CC(=O)O)CC2)CCCCNC(=O)C[C@@H](C(N)=O)NC(=O)[C@H](C(C)C)NC(=O)[C@@H]2CCCN2C(=O)[C@H](CCCNC(=N)N)NC(=O)CNC(=O)[C@H](Cc2c[nH]c3ccccc23)NC(=O)[C@H](CCCNC(=N)N)NC(=O)[C@@H](Cc2ccccc2)NC(=O)[C@H](Cc2c[nH]cn2)NC(=O)[C@H](CCC(=O)O)NC1=O [gallium-67 labelled]
lung uptake (C57 mice, B16/F10 lung metastases; intravenous, 0.037 MBq, 4 h): 1.49 ± 0.69 %ID/g
